Measurements gathered from unrelated publications.
Parts stem from different laboratories: compare values within a part only. Substitutions count along the parent as printed.

Block 1 — method: universal PBM; form: double-stranded DNA, one strand shown; sample: in vitro; concentration: not given; direction: higher = stronger binding
Target: Sal-like protein 4, full length isoform B (SALL4, Homo sapiens, UniProt Q9UJQ4-2, residues 1-616)
Notes: 8-mer, flanks averaged, mean of replicates
Target sequence (chain): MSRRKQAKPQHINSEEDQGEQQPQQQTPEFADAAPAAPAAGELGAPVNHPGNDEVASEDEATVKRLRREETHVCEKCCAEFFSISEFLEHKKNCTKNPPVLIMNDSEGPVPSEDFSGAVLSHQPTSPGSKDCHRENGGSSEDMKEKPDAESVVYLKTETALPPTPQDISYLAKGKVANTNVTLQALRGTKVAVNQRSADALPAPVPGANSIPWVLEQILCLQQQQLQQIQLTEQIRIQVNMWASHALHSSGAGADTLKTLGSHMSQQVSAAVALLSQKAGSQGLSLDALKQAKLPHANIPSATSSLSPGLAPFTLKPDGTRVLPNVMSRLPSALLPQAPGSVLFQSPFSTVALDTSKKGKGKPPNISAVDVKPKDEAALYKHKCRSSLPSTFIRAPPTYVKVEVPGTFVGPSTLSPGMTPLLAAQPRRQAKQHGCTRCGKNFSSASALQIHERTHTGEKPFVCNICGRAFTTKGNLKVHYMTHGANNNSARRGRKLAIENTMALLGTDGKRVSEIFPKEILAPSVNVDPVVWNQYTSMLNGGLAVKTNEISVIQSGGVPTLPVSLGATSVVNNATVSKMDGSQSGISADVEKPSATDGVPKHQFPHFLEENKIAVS
`AATCGTGA` has an E-score of 0.1.
`GACAAGTA` has an E-score of 0.00228.
The E-score of `AAGAGGCG` is reported as -0.122.
`AGGCTTGG` gave an E-score of -0.157.
For `CGCCAGCA`, the E-score was -0.192.
`CTTCAATA` gave an E-score of 0.337.
For `GCCAGTGA`, the E-score was -0.141.
The E-score of `CCCAGTCG` is reported as -0.333.
`GTTTCCAA` gave an E-score of 0.0596.
`ACTGCAAG` gave an E-score of 0.045.
`AATCTAGC` has an E-score of -0.0547.
`AGGCCAGA` has an E-score of -0.103.
For `GGGTCACA`, the E-score was -0.222.

Block 2 — target: CCNE2, cyclin fold, Cln2 fusion (human); method: yeast growth competition, sequencing; sample: yeast; notes: weak parent motif; baseline: not given; direction: higher = stronger binding
Starting sequence: MASTL docking peptide (human); PMIAKNLMCELDE
`M8R` — result for “normalised enrichment score”: -0.104.
`A4M`: “normalised enrichment score” -0.183.
Under “normalised enrichment score”, `K5P` is recorded as 0.0298.
`A4G`: “normalised enrichment score” -0.327.
`D12M`: “normalised enrichment score” 0.388.
`K5I` — result for “normalised enrichment score”: 0.0327.
`K5V`: “normalised enrichment score” -0.146.
For `C9D`, “normalised enrichment score” read -0.261.
`M2Q` — result for “normalised enrichment score”: 0.0504.

Block 3 — method: RNAcompete; form: RNA; sample: in vitro; concentration: 20 nM; notes: 7-mer, probes averaged, single round; baseline: mean of 7-mers; direction: higher = stronger binding
Target: PABPC1L2, full length, GST fusion (mouse, UniProt A0ABA7IW68)
Construct (chain): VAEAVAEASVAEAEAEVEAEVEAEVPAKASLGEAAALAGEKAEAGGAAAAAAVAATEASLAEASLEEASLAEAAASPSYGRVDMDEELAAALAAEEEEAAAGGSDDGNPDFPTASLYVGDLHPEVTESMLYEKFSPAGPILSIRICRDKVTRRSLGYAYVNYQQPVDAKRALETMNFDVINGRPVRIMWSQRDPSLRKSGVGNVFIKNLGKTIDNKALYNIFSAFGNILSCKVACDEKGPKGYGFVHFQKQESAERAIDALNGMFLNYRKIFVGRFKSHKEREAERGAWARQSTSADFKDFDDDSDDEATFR
For `AGCUAGU`, the 7-mer Z-score was -0.233.
The 7-mer Z-score of `UCAUGCA` is reported as -0.209.
For `GCUCUCA`, the 7-mer Z-score was -0.331.
With `UGCGUCG` the 7-mer Z-score was -0.4.
`UACUGUA` has a 7-mer Z-score of -0.166.
`CGCACCG` gave a 7-mer Z-score of -0.137.
`CACAAUU` has a 7-mer Z-score of -0.00833.
The 7-mer Z-score of `UUUACGG` is reported as 0.173.
The 7-mer Z-score of `UCAAACA` is reported as 0.863.
`ACUCCCU` gave a 7-mer Z-score of -0.336.
For `UCCGCGU`, the 7-mer Z-score was -0.479.
With `AUACUGC` the 7-mer Z-score was -0.18.

Other studies, line by line
For `PhoQ, residues 284 288 289 292 302 303 NSMLDC`, the fold induction was 15 (PhoP, residues 12 14 15 18 19 AQALL (Escherichia coli, UniProt P23836); Sort-seq, measured: YFP reporter; E. coli; PhoQ-PhoP variant library, with: 10 µM Mg2+; baseline: high Mg2+ state, higher = stronger signaling).

Some of these lines once more (other studies, line by line):
For `PhoQ, residues 284 288 289 292 302 303 NSMLDC`, the fold induction was 15 (PhoP, residues 12 14 15 18 19 AQALL (Escherichia coli, UniProt P23836); Sort-seq, measured: YFP reporter; E. coli; PhoQ-PhoP variant library, with: 10 µM Mg2+; baseline: high Mg2+ state, higher = stronger signaling).
